Experimental data collected from several papers.
Parts stem from different laboratories: compare values within a part only. Positions count from the first letter of the parent shown.

Study 1
Organism: Saccharomyces cerevisiae
Observed: binding
Method: yeast competitive growth sequencing
Form: peptide
Setting: cyclin B2-Cln2 chimera
Direction: direction not given
Molecule	enrichment score
ESSTVSEEDYFSSHRD	1.38
PLRKAKRARLCSSSSS	2.16
TSPGPVLLHPSPSTTQ	0.387
TSSAQRRLEIPSGGAD	-0.28
SPREGHMMDALYAQVK	0.592
AGSAKRRLFGEDPPKE	0.254
TRRRLFVENDSP	-0.542
ISRLFPPRTPGWHQLQ	-1.01

Study 2
Target: ABI1, truncated, D143A, DHFR fusion (Arabidopsis thaliana)
Method: DHFR PCA, deep sequencing
Matrix: yeast
Setting: methotrexate growth selection, single substitutions
With: (+)-ABA 1.4 µM
Reference: wild-type fitted maximum
Direction: higher = stronger binding
Starting sequence: PYL1, truncated, DHFR fusion (Arabidopsis thaliana); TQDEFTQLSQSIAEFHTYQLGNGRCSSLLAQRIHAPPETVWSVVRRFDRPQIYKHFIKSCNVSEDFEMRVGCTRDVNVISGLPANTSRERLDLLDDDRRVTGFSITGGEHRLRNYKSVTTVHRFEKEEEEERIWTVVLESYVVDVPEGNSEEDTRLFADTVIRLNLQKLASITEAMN; partner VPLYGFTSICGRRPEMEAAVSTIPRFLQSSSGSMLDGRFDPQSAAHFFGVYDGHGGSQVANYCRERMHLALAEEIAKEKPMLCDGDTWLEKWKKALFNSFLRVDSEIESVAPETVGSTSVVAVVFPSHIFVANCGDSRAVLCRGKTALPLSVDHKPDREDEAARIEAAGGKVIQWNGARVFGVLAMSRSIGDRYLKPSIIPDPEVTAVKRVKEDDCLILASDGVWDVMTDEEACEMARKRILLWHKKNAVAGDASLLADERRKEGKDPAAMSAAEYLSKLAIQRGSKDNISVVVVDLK
Variant	relative binding score
M68F	32.3%
L91T	4.01%
N22E	69.3%
D144Q	5.52%
H110D	24.2%
N177G	58.8%
E14W	-4.65%
K58M	8.2%

Study 3
Target: Histone acetyltransferase KAT6A, winged helix 1, GST fusion (KAT6A, Homo sapiens, UniProt Q92794, residues 1-85)
Method: protein binding microarray
Form: double-stranded DNA, one strand shown
Matrix: in vitro
Tested at: not given
Setting: 8-mer, flanks averaged, mean of 2 arrays, mostly near background
Reference: not given
Direction: higher = stronger binding
Residues (chain): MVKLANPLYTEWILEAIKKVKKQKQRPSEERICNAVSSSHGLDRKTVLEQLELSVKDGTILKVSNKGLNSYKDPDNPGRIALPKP
Strand	E-score
CGCGATCA	0.229
GGTAACAA	-0.0439
CGAGGGGA	0.0449
CATGGGCG	0.0829
AGAACCAA	-0.191
AACAGCCC	-0.0657
CTTGTGGA	-0.157
ACGCCGAC	0.387

Mixed results
Molecule	target	test	system	setting	endpoint	result
KHDFIDNPL	HLA class I histocompatibility antigen, A alpha chain, allele A*80:01 (Homo sapiens, UniProt P04439)	peptide-MHC binding	peptide	concentration not given	binding	inactive

Some of these lines once more (study 3):
Strand	E-score
AGAACCAA	-0.191
